# Measurements of several laboratories.
# Every numbered part comes from another study and shows a few of its results, in no order.

# Block 1
# Target: RNA binding protein fox-1 homolog 2, RRM domain, GST-SBP tag (RBFOX2, Homo sapiens, UniProt O43251-10, residues 100-194)
# Method: RNA Bind-n-Seq
# Form: RNA
# Matrix: in vitro
# Concentration: 365 nM
# Setting: natural RNA segment, single round, ends assumed
# Relative to: no-protein control
# Direction: higher = stronger binding
# All sequences stand within: GGGAGUUCUACAGUCCGACGAUC … UGGAAUUCUCGGGUGCCAA
Sequence,RBNS enrichment (R)
UGGCCCCACCCCAGCUCUCUUUCUCUGGGGUACUUAGGGAGAGGAUCCUUCCUCUCCGAGGAUCCUCAUUAUAUACCUAGUAGGAAGGACUCUGAACUCAGAGCAGUCAC,0.396
CCCCUUUCUUUCUUUUUUUUAAUUAAAGAGCAAAACUUUUUAUUACUUUGUAAUUUAAAAAACUGAAAAAAAAAUUACUGAAGAACUUUGGGGGGAAUUUUGUACUUUUU,1.08
CUAUCUUGGUUGUAUUUGCUGCCAUCUGUCUUAUUCCCACAUUUCCCUACAGCCCAUAGUAGUGUCAGCGUGGACUGUAGGGCCCCAUUGGGUAUUAGGAUUUAGGCUCC,0.43
GCCCCUUCCCCAUGAACCCUGCCCUGCUCUGCCCAGGCAAGGAACAGAAGUGAGGAUGAGACCCAGCCCCUUCCCCUGGGAACUCUCCUGGCCUUCUAGGAAUGGAGGAG,0.644
GUGGCCCAUAACUUGAAGGAAAAGUUUAAAGACAGUUCAAUUUAAUCAUCAGAAUGCAUUCUUUUUUUUUUCGGAGACGGAGUUUCACUCUUGCUGCCCAGGCUGGAGUG,0.474
ACAGCUGAGGGGUAGAAGUGGGACUCCUUUCCCGAGCCCCAGCAUGAGGCUGUGGUGUCAGGUUUAGGCCUCUCUCAAGUCAGAAAACCCCGGGCUGAGACCUCCACAGA,15.6
CAAAGAAAUUUUGGAGUGAGUGGCAGUCCUGCGCCAGCCUCGCGGGACACGUGUUGUACAUAAGCCUCUGCAGUGUCCUCUUGUUAAUGGUGGGGUUUUCUGCUUUGUUU,0.523
ACCUCCGCAUCCACCCCCGUCCGCCAUCCUGCCCACCACCAGGUCGGUUCCCGAGGCCUGGCCUUUCCCUCUCCUGCUGAGAACCAGAACCCACCAGGAGCACCACAGAG,2.04

# Block 2
# Target: PABPC1L2, full length, GST fusion (mouse, UniProt A0ABA7IW68)
# Method: RNAcompete
# Form: RNA
# Matrix: in vitro
# Concentration: 20 nM
# Setting: 7-mer, probes averaged, single round
# Relative to: mean of 7-mers
# Direction: higher = stronger binding
# Residues (chain): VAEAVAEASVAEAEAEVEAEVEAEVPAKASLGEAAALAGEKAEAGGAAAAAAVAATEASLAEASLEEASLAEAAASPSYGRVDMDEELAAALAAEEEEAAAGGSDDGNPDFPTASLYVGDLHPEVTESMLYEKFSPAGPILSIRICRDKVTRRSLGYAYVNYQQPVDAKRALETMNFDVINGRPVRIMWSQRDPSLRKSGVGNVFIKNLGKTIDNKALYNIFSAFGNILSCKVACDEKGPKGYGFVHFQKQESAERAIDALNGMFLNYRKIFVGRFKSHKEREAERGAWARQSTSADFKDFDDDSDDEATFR
Sequence,7-mer Z-score
AACAAAU,1.41
CAUAUAC,-0.11
AUCAAAU,0.117
CCCCAGA,-0.273
AGUGAGU,-0.204
ACUCGUU,-0.398
UGAAGGU,-0.0518
AGGGUAG,0.425

# Block 3
# Target: Centromere-binding protein 1, full length, His-tagged (CBF1, Saccharomyces cerevisiae, UniProt P17106, residues 1-351)
# Chain of UniProt P17106 (whole entry, looked up): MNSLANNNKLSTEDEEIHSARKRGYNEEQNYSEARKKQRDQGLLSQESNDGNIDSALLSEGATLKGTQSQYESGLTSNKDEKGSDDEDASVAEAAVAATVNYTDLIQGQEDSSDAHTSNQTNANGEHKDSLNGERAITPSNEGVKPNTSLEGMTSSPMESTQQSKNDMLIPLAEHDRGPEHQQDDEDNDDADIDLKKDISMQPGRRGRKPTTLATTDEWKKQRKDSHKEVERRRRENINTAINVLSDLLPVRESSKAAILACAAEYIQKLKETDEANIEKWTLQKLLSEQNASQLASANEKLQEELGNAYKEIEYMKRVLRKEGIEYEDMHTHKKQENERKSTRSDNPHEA
# Method: competition protein-binding microarray
# Form: double-stranded DNA, one strand shown
# Matrix: in vitro
# Concentration: 2 µM
# Setting: whole 60-bp probe, lowest competitor level
# Added: Pho4 competitor, 0.05 µM
# Direction: higher = stronger binding
# All sequences stand within: … GTCTTGATTCGCTTGACGCTGCTG
Sequence,fluorescence intensity [a.u.]
TTACGCAGCTTTCGGCACGTGAGTACGGAAACACCA,1770
CTGTACGTTGGCATCCGCGTGCTTTAAAAGGGTGTA,122
TTAACGGTTCTCTAGCTCGTGCTTTTAAAGTTAAGT,117
CTTCTGTAAATTTTTCACGTGTCCTGACGCGCCCCG,940
CGGGGTTAAGTTTGGGCCGTGGGTGGCTTGCAGCAG,62.3
CGGGGTTAAGTTTTTCACGTGGTGTGCTTGCAGCAG,742
TGCGCAACAACTTGTCACAGTACTTTATGTCTAGAA,78.1
AAAACTTACTTCCGTCACATGCAAGATGTAGACCCA,533

# Block 4
# Target: Replicase polyprotein 1ab, main protease (rep, Severe acute respiratory syndrome coronavirus 2, UniProt P0DTD1)
# Observed: enzyme activity
# Mode: inhibitor
# Concentration: 20 µM
# Setting: hit confirmation, with DTT
Structure (SMILES),inhibition
CCOC(=S)SSC(=S)OCC,1.4%
CN1CC[C@@]2(C)c3cc(O)ccc3N(C)[C@@H]12,-0.64%
[NH-]c1c[n+](N2CCOCC2)no1,-14.9%

# Block 5
# Target: Replicase polyprotein 1ab, nsp13 helicase (rep, Severe acute respiratory syndrome coronavirus 2, UniProt P0DTD1)
# Mode: inhibitor
# Concentration: 20 µM
SMILES,inhibition
COc1nc(C)nc(Cl)c1NC1=NCCN1,3.3%
Cc1cc(Nc2ccc(NC(=O)c3ccc(Nc4ccnc5ccccc45)cc3)cc2)nc(N)n1,10.9%
CN1CCN(Cc2ccc(-c3cnc4[nH]cc(-c5ccc6[nH]ccc6c5)c4c3)cc2)CC1,35.3%
CN(C)Cc1c(C(=O)NCCOc2ccc(C(=O)NO)cc2)oc2ccccc12,4.48%
COC(=O)Nc1nc2cc(C(=O)c3ccccc3)ccc2[nH]1,5.89%
C[Se]CC[C@H](N)C(=O)O,3.98%
CCOc1cncc(/C=C/CCNC)c1,2.41%
CN[C@H](CC(C)C)C(=O)N[C@H]1C(=O)N[C@@H](CC(N)=O)C(=O)N[C@H]2C(=O)N[C@H]3C(=O)N[C@H](C(=O)N[C@H](C(=O)O)c4cc(O)cc(O)c4-c4cc3ccc4O)[C@H](O[C@H]3C[C@](C)(N)[C@@H](O)[C@H](C)O3)c3ccc(c(Cl)c3)Oc3cc2cc(c3O[C@@H]2O[C@H](CO)[C@@H](O)[C@H](O)[C@H]2O[C@H]2C[C@](C)(NCc3ccc(-c4ccc(Cl)cc4)cc3)[C@@H](O)[C@H](C)O2)Oc2ccc(cc2Cl)[C@H]1O,89.3%
Cc1cc(Nc2ncnc3ccc(-c4ccc(CNCCS(C)(=O)=O)o4)cc23)ccc1Oc1ccn2ncnc2c1,11.6%
Nc1ccc(/N=N/c2ccccc2)c(N)n1,3.58%
C[C@H](N)[C@H](O)c1cccc(O)c1,-7.4%
CCN(CC)CCOC(=O)C(c1ccccc1)C1CCCCC1 (centres unmarked),-29%
COc1ccc(C2CC(c3c(O)cc(C)oc3=O)=NCCS2)c(OC)c1 (centres unmarked),-7.04%
CCC(CC)Nc1nc(C)c(-c2ccc(OC(F)(F)F)cc2OC)nc1OC,4.4%
C=CC1=C(C)c2cc3[nH]c(cc4nc(cc5[nH]c(cc1n2)c(C)c5CCC(=O)O)C(CCC(=O)O)=C4C)c(C)c3C=C,90.1%
Nc1ccccc1C(=O)O,1.7%
O=C1C(Cl)=C(NCCN2CCOCC2)C(=O)c2ncccc21,12%
Cc1ccc(C(=O)c2cc(O)c(O)c([N+](=O)[O-])c2)cc1,77%
Clc1ccc(C(Cn2ccnc2)OCc2csc3c(Cl)cccc23)c(Cl)c1 (centres unmarked),-1.7%
Cc1cccc(-c2[nH]ncc2-c2ccc(F)c(-c3cnn(CCO)c3)c2)n1,7.57%
CC(C)(CCCCCC(O)CCCCCC(C)(C)C(=O)O)C(=O)O,12.4%
COc1cc(OCc2cccc(-c3ccccc3)c2C)cc(OC)c1CN1CCCC[C@H]1C(=O)O,2.27%
O=C(/C=C/c1ccc2c(c1)OCO2)N1CCCCC1,1.48%
CN1CCN(c2ccc(Nc3ncc4cc(C#N)c(=O)n(C5CCCC5)c4n3)cc2)CC1,-1.27%
CCCCC/N=c1\ccn(Cc2ccccc2)c2ccccc12,0.94%

# Single results of other studies
SMILES,cell line,setting,how to read,quantity,result
COc1cc2nc(N3CCN(C(=O)C4COc5ccccc5O4)CC3)nc(N)c2cc1OC (centres unmarked),HEK-293T/ACE2,"concentration not given, 16 (unit not given)",relative to: vehicle,viability,93.7%

# A few entries again (block 5):
SMILES,inhibition
Cc1cc(Nc2ncnc3ccc(-c4ccc(CNCCS(C)(=O)=O)o4)cc23)ccc1Oc1ccn2ncnc2c1,11.6%
Nc1ccc(/N=N/c2ccccc2)c(N)n1,3.58%
C[C@H](N)[C@H](O)c1cccc(O)c1,-7.4%
CCN(CC)CCOC(=O)C(c1ccccc1)C1CCCCC1 (centres unmarked),-29%
COc1ccc(C2CC(c3c(O)cc(C)oc3=O)=NCCS2)c(OC)c1 (centres unmarked),-7.04%
CCC(CC)Nc1nc(C)c(-c2ccc(OC(F)(F)F)cc2OC)nc1OC,4.4%
C=CC1=C(C)c2cc3[nH]c(cc4nc(cc5[nH]c(cc1n2)c(C)c5CCC(=O)O)C(CCC(=O)O)=C4C)c(C)c3C=C,90.1%
Nc1ccccc1C(=O)O,1.7%
